Results from different studies.
Each line is one published result; not all experiments were run side by side.
Rhomboid protease AarA: Rhomboid protease AarA (Providencia stuartii, UniProt P46116)
Chain of UniProt P46116 (whole entry, looked up): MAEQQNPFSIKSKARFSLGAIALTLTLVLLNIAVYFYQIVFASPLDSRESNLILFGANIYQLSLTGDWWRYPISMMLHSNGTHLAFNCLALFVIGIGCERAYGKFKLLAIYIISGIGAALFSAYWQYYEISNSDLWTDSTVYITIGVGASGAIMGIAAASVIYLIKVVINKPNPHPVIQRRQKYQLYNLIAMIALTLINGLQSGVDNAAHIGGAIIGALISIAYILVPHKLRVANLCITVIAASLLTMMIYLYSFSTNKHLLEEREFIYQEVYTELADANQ
PPARG: Peroxisome proliferator-activated receptor gamma (PPARG, Homo sapiens, UniProt P37231)
Chain of UniProt P37231 (whole entry, looked up): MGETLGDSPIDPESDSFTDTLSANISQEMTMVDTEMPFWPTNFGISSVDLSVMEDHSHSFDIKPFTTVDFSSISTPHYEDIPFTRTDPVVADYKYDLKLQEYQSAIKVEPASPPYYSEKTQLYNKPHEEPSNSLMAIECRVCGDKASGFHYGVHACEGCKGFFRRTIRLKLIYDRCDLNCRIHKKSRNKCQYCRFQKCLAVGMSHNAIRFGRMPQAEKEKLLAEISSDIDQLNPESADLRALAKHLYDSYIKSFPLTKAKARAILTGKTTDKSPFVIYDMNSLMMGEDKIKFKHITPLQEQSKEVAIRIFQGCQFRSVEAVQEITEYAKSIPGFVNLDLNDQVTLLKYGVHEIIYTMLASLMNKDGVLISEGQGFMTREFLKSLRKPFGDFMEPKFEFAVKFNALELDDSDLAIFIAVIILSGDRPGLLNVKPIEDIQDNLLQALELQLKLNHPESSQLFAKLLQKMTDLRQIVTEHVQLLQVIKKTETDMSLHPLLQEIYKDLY
Chain of UniProt O96028 (whole entry, looked up): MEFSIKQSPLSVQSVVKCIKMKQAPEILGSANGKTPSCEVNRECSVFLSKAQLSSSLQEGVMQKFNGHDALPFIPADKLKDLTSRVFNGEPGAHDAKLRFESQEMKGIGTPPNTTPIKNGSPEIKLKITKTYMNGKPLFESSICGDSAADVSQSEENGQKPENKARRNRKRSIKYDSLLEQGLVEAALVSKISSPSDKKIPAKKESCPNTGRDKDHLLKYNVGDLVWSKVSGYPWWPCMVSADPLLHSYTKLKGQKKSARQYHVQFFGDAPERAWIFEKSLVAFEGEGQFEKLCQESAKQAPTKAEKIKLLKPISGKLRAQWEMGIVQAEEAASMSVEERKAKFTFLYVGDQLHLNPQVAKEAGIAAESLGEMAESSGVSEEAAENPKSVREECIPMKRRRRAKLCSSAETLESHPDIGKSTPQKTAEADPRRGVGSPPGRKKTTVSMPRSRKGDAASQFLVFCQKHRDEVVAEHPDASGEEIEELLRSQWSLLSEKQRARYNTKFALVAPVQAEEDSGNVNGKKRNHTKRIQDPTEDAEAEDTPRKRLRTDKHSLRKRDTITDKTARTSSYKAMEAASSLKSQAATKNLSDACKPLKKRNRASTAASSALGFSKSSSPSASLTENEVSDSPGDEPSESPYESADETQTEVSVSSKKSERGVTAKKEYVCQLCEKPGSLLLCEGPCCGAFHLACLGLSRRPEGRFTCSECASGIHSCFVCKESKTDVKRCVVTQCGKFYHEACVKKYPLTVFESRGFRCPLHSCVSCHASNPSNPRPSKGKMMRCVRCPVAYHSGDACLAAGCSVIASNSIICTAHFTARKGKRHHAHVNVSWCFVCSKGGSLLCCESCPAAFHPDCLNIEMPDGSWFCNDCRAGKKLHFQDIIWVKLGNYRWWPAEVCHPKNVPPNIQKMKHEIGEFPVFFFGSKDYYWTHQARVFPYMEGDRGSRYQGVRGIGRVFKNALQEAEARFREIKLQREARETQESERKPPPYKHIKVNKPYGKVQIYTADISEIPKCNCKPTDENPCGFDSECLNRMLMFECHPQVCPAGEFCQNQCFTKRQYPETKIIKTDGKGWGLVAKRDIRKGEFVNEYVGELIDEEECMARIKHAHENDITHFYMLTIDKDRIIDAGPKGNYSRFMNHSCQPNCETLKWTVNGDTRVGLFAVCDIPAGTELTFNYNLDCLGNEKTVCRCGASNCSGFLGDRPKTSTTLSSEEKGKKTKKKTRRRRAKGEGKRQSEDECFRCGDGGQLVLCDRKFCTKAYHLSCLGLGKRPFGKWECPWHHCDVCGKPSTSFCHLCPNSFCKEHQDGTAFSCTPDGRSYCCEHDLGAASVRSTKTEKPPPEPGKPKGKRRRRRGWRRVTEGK
Chain of UniProt Q13547 (whole entry, looked up): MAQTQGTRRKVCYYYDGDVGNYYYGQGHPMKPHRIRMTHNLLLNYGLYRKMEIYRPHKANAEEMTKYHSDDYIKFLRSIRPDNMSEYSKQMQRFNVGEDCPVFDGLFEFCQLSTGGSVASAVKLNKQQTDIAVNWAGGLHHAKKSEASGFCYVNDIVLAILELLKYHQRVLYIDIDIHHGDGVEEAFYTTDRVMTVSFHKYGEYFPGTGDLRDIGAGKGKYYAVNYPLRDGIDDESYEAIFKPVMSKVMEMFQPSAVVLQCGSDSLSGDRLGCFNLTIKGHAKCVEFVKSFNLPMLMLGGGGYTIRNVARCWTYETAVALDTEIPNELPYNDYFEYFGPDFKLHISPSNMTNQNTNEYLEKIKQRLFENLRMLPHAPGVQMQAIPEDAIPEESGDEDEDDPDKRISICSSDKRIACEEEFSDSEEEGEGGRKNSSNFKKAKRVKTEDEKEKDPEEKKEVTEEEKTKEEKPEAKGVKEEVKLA
Chain of UniProt Q13976 (whole entry, looked up): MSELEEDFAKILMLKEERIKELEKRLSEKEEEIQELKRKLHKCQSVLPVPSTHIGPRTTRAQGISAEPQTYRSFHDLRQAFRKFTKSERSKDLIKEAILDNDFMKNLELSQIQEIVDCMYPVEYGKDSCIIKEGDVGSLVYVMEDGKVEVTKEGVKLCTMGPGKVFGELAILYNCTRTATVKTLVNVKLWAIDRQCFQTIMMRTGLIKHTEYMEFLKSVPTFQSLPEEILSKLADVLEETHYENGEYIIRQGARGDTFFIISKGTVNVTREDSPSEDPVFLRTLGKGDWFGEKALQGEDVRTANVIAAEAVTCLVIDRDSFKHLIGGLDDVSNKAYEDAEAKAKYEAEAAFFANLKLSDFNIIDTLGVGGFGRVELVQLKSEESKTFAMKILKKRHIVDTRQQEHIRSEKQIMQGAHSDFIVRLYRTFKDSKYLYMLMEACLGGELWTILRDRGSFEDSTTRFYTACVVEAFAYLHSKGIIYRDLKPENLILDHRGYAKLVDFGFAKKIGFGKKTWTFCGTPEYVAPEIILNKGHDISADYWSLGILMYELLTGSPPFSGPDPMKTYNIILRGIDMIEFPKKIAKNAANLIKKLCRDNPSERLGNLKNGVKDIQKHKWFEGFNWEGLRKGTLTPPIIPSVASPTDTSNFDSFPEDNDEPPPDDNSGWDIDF
Chain of UniProt P51681 (whole entry, looked up): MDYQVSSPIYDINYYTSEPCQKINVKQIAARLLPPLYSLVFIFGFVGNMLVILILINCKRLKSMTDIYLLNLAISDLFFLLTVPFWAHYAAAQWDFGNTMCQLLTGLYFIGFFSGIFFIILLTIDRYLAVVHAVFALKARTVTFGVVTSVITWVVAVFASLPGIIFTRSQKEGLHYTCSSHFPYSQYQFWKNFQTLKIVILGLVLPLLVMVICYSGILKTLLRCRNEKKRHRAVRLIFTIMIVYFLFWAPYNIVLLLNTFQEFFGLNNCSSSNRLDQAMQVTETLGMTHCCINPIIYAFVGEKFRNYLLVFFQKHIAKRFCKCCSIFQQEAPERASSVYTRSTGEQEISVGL

Structure (SMILES)	tested on	test	system	setting	scale	measurement	value
Cc1c(Cc2ccc(OC(C)(C)C(=O)O)cc2)c2ccc(C(=O)N[C@@H](C)c3cccc(C4CC4)c3)cc2n1C	Peroxisome proliferator-activated receptor gamma, ligand-binding domain (PPARG, Homo sapiens, UniProt P37231)	reporter gene, luciferase reporter	HEK293T, Gal4-PPARγ LBD			IC50	1620 nM
COc1ccc(CNC(=O)C(C(F)(F)F)C(F)(F)F)cc1	Rhomboid protease AarA	enzyme activity, inhibitor, fluorescence				IC50	15000 nM
Cc1c(Cc2cccc(OC(C)C(=O)O)c2)c2ccc(C(=O)N[C@@H](C)c3ccc(C(F)(F)F)cc3)cc2n1C (stereo partly shown)	PPARG	ligand displacement, TR-FRET				IC50	1 nM
O=C1CC(c2ccccc2)N1S(=O)(=O)c1cccc(-c2ccccc2)c1 (stereo not shown)	Rhomboid protease AarA	enzyme activity, inhibitor, fluorogenic peptide		15 min pre-incubation		IC50	40000 nM
Cc1nnc(C(C)C)n1C1CC2CCC(C1)N2CCC(NC(=O)COCCOCCNC(=O)Cc1ccc(-c2nncnn2)cc1)c1ccccc1 (stereo not shown)	CCR5 (Homo sapiens, UniProt P51681)	calcium mobilization, antagonist	HEK-293T	2 h preincubation, top constrained to 1, added: 0.1 µM PSC-RANTES		IC50	437 nM
Cc1c(Cc2ccc(OC(C)C(=O)O)cc2)c2ccc(C(=O)NC(C)c3ccc(C(F)(F)F)cc3)cc2n1C (mixture of isomers)	PPARG	ligand displacement, TR-FRET				IC50	73 nM
COC1CN([C@H]2CC[C@H]([C@@]3(C)Oc4c(Cl)cc(C(=O)NCc5c(SC)cc(C)[nH]c5=O)c(C)c4O3)CC2)C1		RNA-seq, item: SGIP1	human, whole blood	dose not given, 24 h	baseline: pretreatment baseline	log2 fold change	6.5
O=C1COc2cc(C(=O)N(Cc3ccc(C(=O)Nc4ccc5c(c4)CCN(C(=O)CCCCC(O)S(=O)(=O)O)C5)cc3)C3CC3)ccc2N1 (stereo not shown)	NSD2 (Homo sapiens, UniProt O96028)	ligand displacement, TR-FRET				IC50	248 nM
O=C(Nc1ccccc1)c1ccccc1NC(=O)C(C(F)(F)F)C(F)(F)F	Rhomboid protease AarA	enzyme activity, inhibitor, fluorescence				IC50	1500 nM
Cc1cc(C(C)(C)C)ccc1OS(=O)(=O)Oc1cccc(/C=C/C(=O)NO)c1	HDAC1 (Homo sapiens, UniProt Q13547)	enzyme activity, inhibitor, fluorescence				IC50	3190 nM
O=C(Nc1ccccc1OCC(=O)N1CCOCC1)C(C(F)(F)F)C(F)(F)F	Rhomboid protease AarA	enzyme activity, inhibitor, fluorescence				IC50	21000 nM
Cc1c(Cc2cc(F)cc(OC(C)(C)C(=O)O)c2)c2ccc(C(=O)N[C@@H](C)c3ccc(C(C)(C)C)cc3)cc2n1CC1CCC1	PPARG	ligand displacement, TR-FRET				IC50	4.09 nM
Cc1nn(-c2cccc(N)c2)c(=O)c2cnc(Nc3ccc(N4CCNCC4)cc3)nc12	PRKG1 (Homo sapiens, UniProt Q13976)	enzyme activity, inhibitor				IC50	1320 nM
